Published values of several laboratories.
± marks the error that the study gave. ≈ marks a conversion by molar mass, not a printed value.
Organism: Pseudomonas aeruginosa

For CCCCCCCCCCCCCCC(=O)N[C@@H](CCCCN)C(=O)N[C@@H](CCCCN)C(=O)N[C@@H](CCCCN)C(=O)N[C@@H](CCCCN)C(=O)N[C@@H](Cc1c[nH]cn1)C(N)=O, the MBC was 128 µg/mL (≈ 144 µM) (ATCC 27853).
Under “inhibition zone diameter”, CC(=O)[O-].O.[Cu+2].[O-]c1ccc(Br)cc1C=NCCN1CCOCC1 is recorded as 17 mm (20 µL of 100 µM per disc).
Under “inhibition zone diameter”, Cn1c(SCCN2CCCCC2)nnc1C12CC3CC(CC(C3)C1)C2 is recorded as < 10 mm (IFO 3448; 200 µg/disc, 24 h, 37 °C).
CC[C@H](C)[C@@H]1NC(=O)[C@@H]2CSSC[C@@H]3NC(=O)[C@H](C(C)C)NC(=O)CNC(=O)CNC(=O)[C@H](CCCNC(=N)N)NC(=O)[C@H](CCCNC(=N)N)NC(=O)CNC(=O)[C@H](C(C)C)NC(=O)[C@@H]4CSSC[C@H](NC(=O)[C@H](CC(C)C)NC(=O)[C@H](CCCNC(=N)N)NC(=O)CNC(=O)CNC(=O)[C@H](CO)NC(=O)CNC(=O)[C@H](CO)NC(=O)CNC(=O)[C@@H]5CSSC[C@H](NC(=O)[C@H](CC(=O)O)NC(=O)[C@H](CO)NC(=O)[C@H](CC(=O)O)NC(=O)[C@H](CCCNC(=N)N)NC(=O)[C@H](CCCNC(=N)N)NC(=O)[C@H](CSSC[C@H](NC1=O)C(=O)N[C@@H](CCCNC(=N)N)C(=O)NCC(=O)N[C@@H](CC(N)=O)C(=O)NCC(=O)N[C@@H](Cc1ccc(O)cc1)C(=O)N5)NC(=O)[C@H](CCCNC(=N)N)NC(=O)[C@H](CCC(N)=O)NC(=O)[C@H](CC(C)C)NC(=O)[C@H]([C@@H](C)CC)NC(=O)[C@H](CCCCN)NC(=O)[C@@H]1CCCN1C3=O)C(=O)N1CCC[C@H]1C(=O)NCC(=O)N[C@@H](C)C(=O)N2)C(=O)N[C@@H](Cc1ccc(O)cc1)C(=O)N[C@H]1CSSC[C@H](NC(=O)[C@H](Cc2ccccc2)NC(=O)[C@H](CCCNC(=N)N)NC(=O)[C@H](CCCNC(=N)N)NC(=O)[C@H](CCCNC(=N)N)NC1=O)C(=O)N[C@@H](C(C)C)C(=O)N4 has an MIC50 of 1.5 µM (≈ 8.26 µg/mL) (clinical isolates 30% MDR, CAMHB).
With CCCCCCCCCCCCCC(=O)N[C@@H](Cc1ccc2ccccc2c1)C(=O)N[C@@H](CCCCN)C(=O)N[C@@H](CCCCN)C(=O)N[C@@H](CCCCN)C(=O)N[C@@H](CCCCN)C(N)=O the MBC was 128 µg/mL (≈ 137 µM) (ATCC 27853).
Under “inhibition zone diameter”, FC(F)(F)c1cc(CSc2nnc(C34CC5CC(CC(C5)C3)C4)n2-c2ccccc2)cc(C(F)(F)F)c1 is recorded as 19 mm (IFO 3448; 200 µg/disc, 24 h, 37 °C).
Under “MIC of colistin”, Oc1ccc(C(F)(F)F)cc1-c1nc2c(Cl)cc(Cl)cc2[nH]1 is recorded as 2 µg/mL (colistin potentiator; TRPA 162, colistin-resistant; 5 µM).
For Cc1cc(O)c2c(c1)C(=O)c1cc3oc(=O)cc(C)c3c(O)c1C2=O, “zone of inhibition” read < 8 mm (MTCC 2453; 100 µg/disc).
The survival of CC[C@@H](C)[C@@H](NC(=O)[C@@H](CCCNC(=N)N)NC(=O)[C@@H](CCCNC(=N)N)NC(=O)[C@@H](Cc1c[nH]c2ccccc12)NC(=O)[C@@H](CCC(N)=O)NC(=O)[C@H](N)C(C)C)C(=O)N[C@H](CCCNC(=N)N)C(=O)N[C@@H](C(=O)N[C@H](Cc1c[nH]c2ccccc12)C(=O)N[C@@H](C(=O)N[C@@H](C(=O)N[C@H](CCCNC(=N)N)C(N)=O)[C@H](C)CC)C(C)C)C(C)C is reported as 50 ± 8% (PAO1, Galleria mellonella larvae; proleg injection, 20 µg per larva, 24 h post infection, 37 °C, dosed 1 h after infection).
For S=c1n(CN2CCN(Cc3ccccc3)CC2)nc(C23CC4CC(CC(C4)C2)C3)n1-c1ccccc1, “inhibition zone diameter” read < 10 mm (IFO 3448; 200 µg/disc, 24 h, 37 °C).
Under “MIC geometric mean”, CC[C@@H](C)[C@@H](NC(=O)[C@@H](C)NC(=O)[C@@H](CCCCN)NC(=O)[C@@H](CC(C)C)NC(=O)[C@@H](C)NC(=O)[C@H](NC(=O)[C@@H](Cc1c[nH]cn1)NC(=O)[C@@H](CC(C)C)NC(=O)[C@H](NC(=O)[C@H](NC(=O)[C@@H](CCCCN)NC(=O)[C@H](NC(=O)[C@@H](C)NC(=O)[C@@H](CO)NC(=O)[C@@H](CCCCN)NC(=O)[C@@H](Cc1ccccc1)NC(=O)[C@H](NC(=O)[C@@H](CCCCN)NC(=O)[C@@H](CC(C)C)NC(=O)[C@@H](Cc1ccccc1)NC(=O)[C@@H](CO)NC(=O)[C@@H](CCCCN)NC(=O)[C@@H](Cc1c[nH]c2ccccc12)NC(=O)[C@@H](CCCCN)NC(C)=O)[C@H](C)O)C(C)C)[C@H](C)O)C(C)C)[C@H](C)O)C(=O)N[C@H](CO)C(=O)N[C@H](CO)C(N)=O is recorded as 1.8 µM (≈ 5.33 µg/mL) (six isolates; 24 h, 37 °C).
CC(=NNC(=N)N)c1nnn(-c2ccc(C#CC3(O)CCCCC3)cc2)c1C gave an MBC of 62.5 µg/mL (≈ 165 µM) (microbial killing; ATCC10145).
c1ccc(-c2ccc(CNCCNCc3ccc(-c4ccccn4)cc3)cc2)nc1 — result for “lavage protein concentration”: “decreased” (PA103, mouse pneumonia model; intraperitoneal, 100 µg, 18 h).
The elastase inhibition of O=C(CCc1ccc(Br)cc1)N[C@H]1CCOC1=O is reported as < 25% (elastin-Congo red; PAO1 wild type; 100 µM).
For CC[C@H](C)[C@H](NC(=O)[C@H](Cc1c[nH]cn1)NC(=O)[C@H](CCCCNC(=O)[C@@H](NC(=O)[C@H](CCCCN)NC(=O)CSC[C@H](NC(=O)[C@H](Cc1ccccc1)NC(=O)[C@H](CCCCNC(=O)[C@H](CC(C)C)NC(=O)[C@@H]1CCCN1C(=O)[C@H](CCCCN)NC(C)=O)NC(=O)[C@H](CC(C)C)NC(=O)[C@@H]1CCCN1C(=O)[C@H](CCCCN)NC(C)=O)C(N)=O)[C@@H](C)CC)NC(=O)[C@@H](NC(=O)[C@H](CCCCN)NC(=O)CSC[C@H](NC(=O)[C@H](Cc1ccccc1)NC(=O)[C@H](CCCCNC(=O)[C@H](CC(C)C)NC(=O)[C@@H]1CCCN1C(=O)[C@H](CCCCN)NC(C)=O)NC(=O)[C@H](CC(C)C)NC(=O)[C@@H]1CCCN1C(=O)[C@H](CCCCN)NC(C)=O)C(N)=O)[C@@H](C)CC)C(N)=O, biofilm dispersal read “increased” (PAO1; 50 µM, 24 h).
With CCc1ccccc1NC(=O)CSc1nc2ccccc2c(=O)n1-c1ccc(S(N)(=O)=O)cc1 the inhibition zone was 25 mm (microbial growth, well diffusion; ATCC27853; 500 µg/mL, 24 h).
Under “zone of inhibition”, Cc1cc(O)c2c(c1)C(=O)c1cc3oc(=O)cc(-c4ccc(Cl)cc4)c3c(O)c1C2=O is recorded as 8 mm (MTCC 2453; 100 µg/disc).
With CC[C@@H](C)[C@@H](NC(=O)[C@@H](C)NC(=O)[C@@H](CCCCN)NC(=O)[C@@H](CC(C)C)NC(=O)[C@@H](CC(C)C)NC(=O)[C@H](NC(=O)[C@@H](CCCCN)NC(=O)[C@@H](CC(C)C)NC(=O)[C@@H](C)NC(=O)[C@@H](CCCCN)NC(=O)[C@@H](CCCCN)NC(=O)[C@@H](CCCCN)NC(=O)[C@@H](C)NC(=O)[C@@H](CCCCN)NC(=O)[C@@H](CO)NC(=O)[C@@H](Cc1ccccc1)NC(=O)[C@H](NC(=O)[C@@H](CCCCN)NC(=O)[C@@H](CC(C)C)NC(=O)[C@@H](Cc1ccccc1)NC(=O)[C@@H](CO)NC(=O)[C@@H](CCCCN)NC(=O)[C@@H](Cc1c[nH]c2ccccc12)NC(=O)[C@@H](CCCCN)NC(C)=O)[C@H](C)O)[C@H](C)O)C(=O)N[C@H](CO)C(=O)N[C@H](CCCCN)C(N)=O the therapeutic index was 35.3 (six isolates; baseline: HC50 over geometric mean MIC).
With CCOC(=O)c1cnc(N/N=C/c2c(-c3ccc(F)cc3)nc3ncccn23)s1 the inhibition zone was 12 mm (microbial growth, well diffusion; ATCC27853; 100 µg/mL).
The IC50 of O=c1cc(-c2ccccc2)oc2cc(O)cc([O][Ga+][O]c3cc(O)cc4oc(-c5ccccc5)cc(=O)c34)c12 is reported as 1.52 µg/mL (bacterial viability).
For CCCCCCCCCC(=O)NCCCC[C@H](NC(=O)[C@H](CC(C)C)NC(=O)[C@H](CCCCN)NC(=O)[C@H](CCCCNC(=O)[C@H](CC(C)C)NC(=O)[C@H](CCN)NC(=O)[C@H](CCCCNC(=O)[C@H](Cc1ccccc1)NC(=O)[C@@H](N)CCCN)NC(=O)[C@H](Cc1ccccc1)NC(=O)[C@@H](N)CCCN)NC(=O)[C@H](CC(C)C)NC(=O)[C@H](CCN)NC(=O)[C@H](CCCCNC(=O)[C@H](Cc1ccccc1)NC(=O)[C@@H](N)CCCN)NC(=O)[C@H](Cc1ccccc1)NC(=O)[C@@H](N)CCCN)C(N)=O, the MBIC was 8 µg/mL (biofilm formation; PAO1; 24 h, 37 °C).
COc1ccc(-c2ccn(CC[C@](C)(C(=O)NO)S(C)(=O)=O)c(=O)c2)c(F)c1 has an MIC90 of 1 µg/mL (≈ 2.42 µM) (microbial growth; clinical isolate).
O=C1CC(c2ccc(O)cc2)Oc2cc(O)cc([O][Ga+][O]c3cc(O)cc4c3C(=O)CC(c3ccc(O)cc3)O4)c21 (stereo not drawn) has a remaining biofilm of 10% (40 µM, day three, 48 h-old biofilm).
With Cc1cccc2c3c(ccc12)C1=C(C(=O)C3=O)[C@@H](C)CO1 the inhibition was < 70% (cytotoxicity; J774.A1, PAO1; 100 µM, 5 h, serum-free medium).
CC(=O)N[C@H](CCCCN)C(=O)N[C@H](CC(C)C)C(=O)N[C@H](CCCCN)C(=O)N[C@H](CO)C(=O)N[C@H](CC(C)C)C(=O)N[C@H](CC(C)C)C(=O)N[C@H](CCCCN)C(=O)N[C@@H](C(=O)N[C@H](CC(C)C)C(=O)N[C@H](CO)C(=O)N[C@H](CCCCN)C(=O)N[C@H](C)C(=O)N[C@H](CCCCN)C(=O)N[C@H](CCCCN)C(=O)N[C@H](CCCCN)C(=O)N[C@H](CCCCN)C(=O)N[C@H](CC(C)C)C(=O)N[C@H](CCCCN)C(=O)N[C@@H](C(=O)N[C@H](CC(C)C)C(=O)N[C@H](CC(C)C)C(=O)N[C@H](CCCCN)C(=O)N[C@H](C)C(=O)N[C@H](CC(C)C)C(=O)N[C@H](CO)C(=O)N[C@H](CCCCN)C(N)=O)[C@H](C)O)[C@H](C)O gave a therapeutic index of 895 (six isolates; baseline: HC50 over geometric mean MIC).
For Cc1cccc([N+](=O)[O-])c1NC(=O)CSc1nc2ccccc2c(=O)n1-c1ccc(S(N)(=O)=O)cc1, the inhibition zone was 11 mm (microbial growth, well diffusion; ATCC27853; 500 µg/mL, 24 h).
COc1c2c(cc3oc(=O)cc(-c4ccc(O)cc4)c13)C(=O)c1cc(C)cc(O)c1C2=O — result for “zone of inhibition”: < 8 mm (MTCC 2453; 100 µg/disc).

Repeated from above:
Under “MIC geometric mean”, CC[C@@H](C)[C@@H](NC(=O)[C@@H](C)NC(=O)[C@@H](CCCCN)NC(=O)[C@@H](CC(C)C)NC(=O)[C@@H](C)NC(=O)[C@H](NC(=O)[C@@H](Cc1c[nH]cn1)NC(=O)[C@@H](CC(C)C)NC(=O)[C@H](NC(=O)[C@H](NC(=O)[C@@H](CCCCN)NC(=O)[C@H](NC(=O)[C@@H](C)NC(=O)[C@@H](CO)NC(=O)[C@@H](CCCCN)NC(=O)[C@@H](Cc1ccccc1)NC(=O)[C@H](NC(=O)[C@@H](CCCCN)NC(=O)[C@@H](CC(C)C)NC(=O)[C@@H](Cc1ccccc1)NC(=O)[C@@H](CO)NC(=O)[C@@H](CCCCN)NC(=O)[C@@H](Cc1c[nH]c2ccccc12)NC(=O)[C@@H](CCCCN)NC(C)=O)[C@H](C)O)C(C)C)[C@H](C)O)C(C)C)[C@H](C)O)C(=O)N[C@H](CO)C(=O)N[C@H](CO)C(N)=O is recorded as 1.8 µM (≈ 5.33 µg/mL) (six isolates; 24 h, 37 °C).
CC(=NNC(=N)N)c1nnn(-c2ccc(C#CC3(O)CCCCC3)cc2)c1C gave an MBC of 62.5 µg/mL (≈ 165 µM) (microbial killing; ATCC10145).
c1ccc(-c2ccc(CNCCNCc3ccc(-c4ccccn4)cc3)cc2)nc1 — result for “lavage protein concentration”: “decreased” (PA103, mouse pneumonia model; intraperitoneal, 100 µg, 18 h).
The elastase inhibition of O=C(CCc1ccc(Br)cc1)N[C@H]1CCOC1=O is reported as < 25% (elastin-Congo red; PAO1 wild type; 100 µM).
